Experimental data of several laboratories.
A part holds a random share of what one study measured.

Block 1 — method: RNA Bind-n-Seq; form: RNA; matrix: in vitro; concentration: 365 nM; reference: no-protein control; direction: higher = stronger binding
Target: RNA binding protein fox-1 homolog 2, RRM domain, GST-SBP tag (RBFOX2, Homo sapiens, UniProt O43251-10, residues 100-194)
Setting: natural RNA segment, single round, ends assumed
Target sequence (chain): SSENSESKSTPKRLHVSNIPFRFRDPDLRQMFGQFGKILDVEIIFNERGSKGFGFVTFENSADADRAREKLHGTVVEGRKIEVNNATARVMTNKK
Oligonucleotide	RBNS enrichment (R)
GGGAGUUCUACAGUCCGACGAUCUAAGCAGCGAUGGGUUCAGUGUUGUGUGUGGUGAAUACUGUAUUUUGUUUCAGUUCUGUCUCCCAGAUAAUGUGAAAACGGUCCAGGAGAAGGCAGCUUCCUAUAUGCAGUGGAAUUCUCGGGUGCCAA	1.48
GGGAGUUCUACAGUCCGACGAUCCCCCACCCUGCCUCUUGUCCUGUUGCUAUGUCCUGGUCCUUCUUCCCGCUCUGGGCUUCUCUCAACCCCAACCCUGGGUUUUCUCCUAGACUCUUGGGCUGCGAUGCAUCUGGAAUUCUCGGGUGCCAA	1.4
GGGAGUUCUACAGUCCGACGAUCGGGCCCAGGCCUCAGCCCCAGUUCUACCUGGCUUGCUGUCACCGCUCUAGGGGUGGGGGACGUCCCAGGGGAUCCCCAGGAGAAGGAGAGCCCUGUAGGGGGCUGUGCAGUGGAAUUCUCGGGUGCCAA	0.427
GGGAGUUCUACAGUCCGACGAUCCUAGAACCUUGUUGAUCAUGCUCAUAUUCUUCUUGAGGUUUGUUUUUGUUGUUGCGUAGUCUUUGUUUUAUACUUCUACAAUACCCGUAUAGCCUUCCACAUAGAUCUGCUGGAAUUCUCGGGUGCCAA	0.6
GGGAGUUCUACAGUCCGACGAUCCCUUCACGACCCAGAUCUGUGCUGGCCAAAGUCGCUGCGUUUCUCAUCCCCAGCGAGGGUUUCCUCUCAGUCAUUUGUUUACCAGAAAGGAUGAAACUUGCCUGUUGGGGUGGAAUUCUCGGGUGCCAA	0.681
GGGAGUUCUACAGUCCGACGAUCUAUAGAUCUCCACUACACUCCAGAAGCCCAUCCCUAGUCUCCAAAGCCCUGCCUCUGGGCAACUCGCUCAACUCUUGUCCACUAUUAGCUGUGGGCAGUGGAGGCAGAUAUGGAAUUCUCGGGUGCCAA	0.171
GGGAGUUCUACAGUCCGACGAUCUGUCAGCUUUGGAUUGCUGGGGCCAGGCCCCAUGGAGGGUAUACUGAGGGGUCUAUAGGUUUGUGAUUAAAAUAAUAAAAGCUAGGCGUGUUUGAUGCGCUUUUAACUUUUGGAAUUCUCGGGUGCCAA	0.981
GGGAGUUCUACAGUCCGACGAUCUUCCAUUUUUUCUUACAAUUCUUCAGGGAACUUACCUGCAUUAAGUGAGGUUAAAUGCAUUCAGGAGGUUGUUUGUUUCUUCUAUCUAGUUUUAGAAUAAUAUUUCUUCGUGGAAUUCUCGGGUGCCAA	0.55
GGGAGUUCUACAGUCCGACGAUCCACUUUUAUCAGUUUAGUAGUAGUACUGAGAAAAAUCCCUUCAGCUCUAAGAACACUGAAAAAUCCACCGAUUUUUUGGGUAAGCUUCUUGGCAAUACCCUGUGGAUCUGUGGAAUUCUCGGGUGCCAA	0.281
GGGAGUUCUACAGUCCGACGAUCUGGAAAAGCCAACCCCGUGGCUGCCCGUGAGUAGGGGGUGGGGUUGGGAAUCCUGGAUAGUGUUCUAUCCAUGGAAAGUGGUGGAAUAGGAAUUAAGGGUGUUCCCCCCCUGGAAUUCUCGGGUGCCAA	0.395
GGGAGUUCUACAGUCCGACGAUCUGAUCUUAGUGAUCCCCCUACUACUACCACCAAUUCACUUCACAAAGUCAGUUAUGAGUCUACCAGACUUUGUUCUGAAAAAUAGAAACAAAACACCUGAUUAAGCUCUUUGGAAUUCUCGGGUGCCAA	0.608
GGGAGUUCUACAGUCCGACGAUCCACAUUUGUACAUAUAUCUAAUGUUUUCAAGUGCCUUACUUGUUUAAACUCUGACUUCAAAGGUUUUUGGGGAAAGAUAGGUUUACCUCACAGUUAUGUUUCCAUUGUAAUGGAAUUCUCGGGUGCCAA	0.613

Block 2 — method: RNA Bind-n-Seq; form: RNA; matrix: in vitro; concentration: 200 nM; setting: whole 134-nt RNA, ends assumed; with: 150 mM KCl; reference: input library; direction: higher = stronger binding
Target: Fragile X messenger ribonucleoprotein 1, C-terminal low-complexity region (Fmr1, Mus musculus, UniProt P35922)
Oligonucleotide	log2 enrichment
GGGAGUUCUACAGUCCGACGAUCAAGUCCUGUGCUACACAUCGUAUGUACCGAAUCGGGGUGGGGAAAAAGGGGAGGGGAAAGUAUUAUGUUACGCCGUUCGGAUCUGCACUUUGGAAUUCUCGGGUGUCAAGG	0.785
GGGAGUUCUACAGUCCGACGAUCUGGGAGGUGGAUCUUGUUUAUUUUUUUAGCUCAUUUCCAGGGGUGGGAAUUUUUUUUUAAUAUGUGUCAUGAAUAAAGUUGUUUUUGAAAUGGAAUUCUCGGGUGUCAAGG	-0.0428
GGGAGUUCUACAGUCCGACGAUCUUUUACAACCCCAAUUUAAAGAAAGUUGUAGAGGCCCACAAGAUCGUUCUCUGCGCUGUAAGCCAUGUUUUCAUGCUGCUUUUCAAUGUGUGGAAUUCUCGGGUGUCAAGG	-1.02
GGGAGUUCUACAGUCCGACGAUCUGGCCCUGGUGGCAAGCGGGGAGGAAGAGGUGGCCUCAUGGAUCGUGGUGGUCCCGGUGGAAUGUUCAGAGGUGGCCGUGGUGGAGACAGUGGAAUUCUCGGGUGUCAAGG	0.035
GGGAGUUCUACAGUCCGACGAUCAGUCCUGUGCUACACAUCGUAUGUACCGAAUCGGAAAAAAAGGAAAAAAAGGAAAGGAAAGUAUUAUGUUACGCCGUUCGGAUCUGCACUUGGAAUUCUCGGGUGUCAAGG	-1.09
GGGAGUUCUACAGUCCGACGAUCUCCUCAAGUCCUGUGCUACACAUCGUAUGUACCGAAUCGGGGAGGAGGGAGGAAAGUAUUAUGUUACGCCGUUCGGAUCUGCACUUCCAGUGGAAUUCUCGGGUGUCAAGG	0.503
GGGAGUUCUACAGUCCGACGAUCAAGUCCUGUGCUACACAUCGUAUGUACCGAAUCGGAAAAAGGAAAAAGGAAAAAGGAAAGUAUUAUGUUACGCCGUUCGGAUCUGCACUUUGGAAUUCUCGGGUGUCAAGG	-0.99
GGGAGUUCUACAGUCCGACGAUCACCAUGCAGGUGGGCAUCUUUGGGAAGUGGGGCAAGGGGGGGAUAGGGAGGGGGGUAACACUUUGGGAACAGGUGGUCCCAAAACGUUUCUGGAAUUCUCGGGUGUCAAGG	0.741
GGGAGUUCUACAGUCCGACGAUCCAAGUCCUGUGCUACACAUCGUAUGUACCGAAUCGGAAAAAGGUUUUUGGAAAGGAAAGUAUUAUGUUACGCCGUUCGGAUCUGCACUUCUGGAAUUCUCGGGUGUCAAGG	-1.06
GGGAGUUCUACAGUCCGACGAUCUCCCGACAUCUGUGGCCCUGGCACCAAGAAGGUUCAUGUCAUCUUCAACUACAAGGGCAAGAACGUGCUGAUCAACAAGGACAUCCGUUGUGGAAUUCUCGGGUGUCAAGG	-0.307
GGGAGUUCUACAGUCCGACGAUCAGUCCUGUGCUACACAUCGUAUGUACCGAAUCGGGUUUUUGGGUUUUUUUGGGAGGGAAAGUAUUAUGUUACGCCGUUCGGAUCUGCACUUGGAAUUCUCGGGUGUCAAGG	0.595
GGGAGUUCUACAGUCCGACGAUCACCAUGCAGGUGGGCAUCUUUGGGAAGUGGGGCAAGGGGGGGAUAGGGAGGGGGGUAACACUUUGGGAACAGGUGGUCCCAGGUAAAUUCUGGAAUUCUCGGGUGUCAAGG	0.692
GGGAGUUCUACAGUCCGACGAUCUGGGAGGUGGAUUUUGUUUAUUUUUUUAGCUCAUUUCCAGGGGUGGGAAUUUUUUUUCAAUAUGUGUCAUGAAUAAAGUUGUUUUUGAAAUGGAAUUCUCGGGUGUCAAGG	0.261
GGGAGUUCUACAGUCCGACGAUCUGGCCCUGGUGGCAUGCGGGGAGGAAGAGCUGGCCUCAUGGAUCGUGGUGGUCCCGGUGGAAUGUUCAGAGGUGGCCGUGGUGGAGACAGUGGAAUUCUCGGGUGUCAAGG	0.0186

Block 3 — method: protein binding microarray; form: double-stranded DNA, one strand shown; matrix: in vitro; concentration: not given; reference: not given; direction: higher = stronger binding
Target: Histone acetyltransferase KAT6A, both winged helices, GST fusion (KAT6A, Homo sapiens, UniProt Q92794, residues 1-181)
Setting: 8-mer, flanks averaged, mean of 2 arrays, mostly near background
Target sequence (chain): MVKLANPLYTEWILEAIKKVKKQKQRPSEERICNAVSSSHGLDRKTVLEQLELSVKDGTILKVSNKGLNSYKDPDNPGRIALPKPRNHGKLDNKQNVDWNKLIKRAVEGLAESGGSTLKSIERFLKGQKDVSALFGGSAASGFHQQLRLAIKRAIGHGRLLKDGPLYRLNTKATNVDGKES
Oligonucleotide	E-score
AGGATCGG	-0.0494
ATGACGAA	-0.167
AGCATCCA	-0.196
CCCCTCTA	-0.241
CTCGAGGC	-0.0708
GTTGGCTA	0.0241
AGCGTACA	0.00771
GCATGCAC	0.0882
AATCTCCT	-0.18
CCAAACAA	-0.0864
ATCTCACG	0.02
AACAGTTA	0.0467
CCTATACC	-0.0297
GGCATTTA	-0.0537
GGCTATTA	-0.0953
CGCGTCAC	0.245
ACCACTGC	-0.0447
GTGCGCAA	0.173
AGACAACG	0.00294
GAGGAATC	-0.0137
ACTCCCAC	-0.165
GAGCACCC	0.0885
AGAGCCGA	0.166
CTGGTATC	-0.0887
GCAGGTGA	-0.185

Block 4 — method: aptamer microarray, sandwich; form: DNA with 2'F-ANA; matrix: in vitro; concentration: 200 nM; with: Cy3 exosite-II aptamer, 400 nM; direction: higher = stronger binding; oligonucleotide: GGTTGGTGTGGTTGG
Target: Prothrombin, mature alpha-thrombin (F2, Homo sapiens, UniProt P00734)
Setting: whole 15-mer aptamer, many near background
Modification	mean fluorescence intensity [a.u.]
2'F-ANA at 6 7 8 10 11 12 15	168
2'F-ANA at 1 5 6 8 9 10 12 14 15	51.7
2'F-ANA at 1 2 4 5 6 8 10 12 14 15	51.8
2'F-ANA at 1 4 5 7 8 9 11 12 13 15	68.1
2'F-ANA at 1 2 5 6 7 9 10 11 13 15	51.8
2'F-ANA at 2 4 6 8 11 13 14	123
2'F-ANA at 1 2 3 4 6 7 8 9 14	65.6
2'F-ANA at 2 7 9 13	372
2'F-ANA at 2 5 7 9 13 14	50.5
2'F-ANA at 1 2 3 6 7 8 9 10 12	83.7
2'F-ANA at 3 6 7 11 12	1180
2'F-ANA at 1 3 7 12 14	173
2'F-ANA at 8 9 11 13	490
2'F-ANA at 2 3 5 6 9 10 13 14 15	52.4
2'F-ANA at 10 11 14	106
2'F-ANA at 2 3 6 8 11	691
2'F-ANA at 1 2 4 6 7 8 11 12 14	64.4
2'F-ANA at 1 2 3 9 10 11 12 15	129
2'F-ANA at 2 3 4 5 8 11 15	76.6
2'F-ANA at 2 3 5 6 8 9 12 13 15	147
2'F-ANA at 3 4 5 6 7 9 12 13	106
2'F-ANA at 5 8 10	46.9
2'F-ANA at 1 2 3 4 6 8 11 12 14	71.6
2'F-ANA at 2 5 6 7 10 11 12 13 15	51.1
2'F-ANA at 2 3 5 6 7 9 10 11	63

Some of these lines once more (block 1):
Oligonucleotide	RBNS enrichment (R)
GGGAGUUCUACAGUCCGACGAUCCACUUUUAUCAGUUUAGUAGUAGUACUGAGAAAAAUCCCUUCAGCUCUAAGAACACUGAAAAAUCCACCGAUUUUUUGGGUAAGCUUCUUGGCAAUACCCUGUGGAUCUGUGGAAUUCUCGGGUGCCAA	0.281
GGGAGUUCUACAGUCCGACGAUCUUCCAUUUUUUCUUACAAUUCUUCAGGGAACUUACCUGCAUUAAGUGAGGUUAAAUGCAUUCAGGAGGUUGUUUGUUUCUUCUAUCUAGUUUUAGAAUAAUAUUUCUUCGUGGAAUUCUCGGGUGCCAA	0.55
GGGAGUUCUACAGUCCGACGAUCCCCCACCCUGCCUCUUGUCCUGUUGCUAUGUCCUGGUCCUUCUUCCCGCUCUGGGCUUCUCUCAACCCCAACCCUGGGUUUUCUCCUAGACUCUUGGGCUGCGAUGCAUCUGGAAUUCUCGGGUGCCAA	1.4
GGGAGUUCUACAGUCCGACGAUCUGGAAAAGCCAACCCCGUGGCUGCCCGUGAGUAGGGGGUGGGGUUGGGAAUCCUGGAUAGUGUUCUAUCCAUGGAAAGUGGUGGAAUAGGAAUUAAGGGUGUUCCCCCCCUGGAAUUCUCGGGUGCCAA	0.395
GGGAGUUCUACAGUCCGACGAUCCUAGAACCUUGUUGAUCAUGCUCAUAUUCUUCUUGAGGUUUGUUUUUGUUGUUGCGUAGUCUUUGUUUUAUACUUCUACAAUACCCGUAUAGCCUUCCACAUAGAUCUGCUGGAAUUCUCGGGUGCCAA	0.6
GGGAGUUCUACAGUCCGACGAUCCCUUCACGACCCAGAUCUGUGCUGGCCAAAGUCGCUGCGUUUCUCAUCCCCAGCGAGGGUUUCCUCUCAGUCAUUUGUUUACCAGAAAGGAUGAAACUUGCCUGUUGGGGUGGAAUUCUCGGGUGCCAA	0.681
